Published values of several laboratories.
Numbered parts are unrelated; each lists some results of a single study. Changes are numbered by the printed parent chain.

Sample 1
Target: CCNB3, cyclin fold, Cln2 fusion (human)
Method: yeast growth competition, sequencing
Matrix: yeast
Setting: weak parent motif
Relative to: not given
Direction: higher = stronger binding
Starting sequence: MASTL docking peptide (human); PMIAKNLMCELDE; partner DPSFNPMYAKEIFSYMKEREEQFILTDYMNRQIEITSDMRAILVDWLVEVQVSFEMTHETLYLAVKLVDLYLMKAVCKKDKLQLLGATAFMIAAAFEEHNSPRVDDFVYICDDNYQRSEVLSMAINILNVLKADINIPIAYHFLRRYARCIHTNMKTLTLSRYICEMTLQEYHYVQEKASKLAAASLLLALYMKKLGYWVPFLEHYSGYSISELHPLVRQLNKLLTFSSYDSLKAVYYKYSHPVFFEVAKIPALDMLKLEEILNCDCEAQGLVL
Change | normalised enrichment score
I3Y | 0.287
M8Q | -0.0621
L7F | -0.189
C9S | -0.241
M8H | 0.0775
C9L | -0.241
E10G | -0.0167
D12F | 0.364
I3H | 0.00143
L11K | -0.074
E10D | 0.0719
E10H | 0.09
A4N | 0.0658
L11R | -0.154
M2A | -0.244
M2D | 0.0142
K5F | -0.0403
I3S | -0.212
C9W | -0.283
K5E | 0.000539
D12A | 0.207

Sample 2
Target: RNA binding protein fox-1 homolog 2, RRM domain, GST-SBP tag (RBFOX2, Homo sapiens, UniProt O43251-10, residues 100-194)
Method: RNA Bind-n-Seq
Form: RNA
Matrix: in vitro
Concentration: 365 nM
Setting: natural RNA segment, single round, ends assumed
Relative to: no-protein control
Direction: higher = stronger binding
Constant ends, left off below: GGGAGUUCUACAGUCCGACGAUC … UGGAAUUCUCGGGUGCCAA
Construct (chain): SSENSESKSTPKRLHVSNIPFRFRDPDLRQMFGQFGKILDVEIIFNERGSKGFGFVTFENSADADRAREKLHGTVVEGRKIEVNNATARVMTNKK
Oligonucleotide | RBNS enrichment (R)
CCAUGGCUUUUACACUGUCAACGGCUUUACCUACUUUUUAAAAUUAAGUCUUUGAUUUUAUGAUUUAUUUCUGUAUGGCACUGGAUAAAAAUAUUAUUAAAACAUUUCUG | 0.653
UGGAUGUAUUGUACAGAGAACAUGAACGUCUCUUCCUAAUUUUACAUCUUCAGCAUCAUUGCAUUAAAGUGGUGUAAUCUCCUUCUCUACAUCUGUUGUCAGAGCCACUG | 1.15
AGAGAUGGGGUUUCACCGUGCUGGCCAGGCUGGUCUAGAACUCCUGACUGCAAAUGAUCAGCCCGCCUCAGCCACCCAAAGUGUUGGGAUUACAGGUGUGAGCCACUGUG | 0.454
UGUUUAUCCUCGGCUGCUGUCUUCCCAGCAGGCCCCAGGCAAGGAGGCUUCCCAUUGCUGCUGCUACCGGUUCUCCACAGAUCCCUGUGGUCCGCCAUCGCCGACACACA | 0.224
UCGCCACAGCCUACAUAGUGUCUUCCACCUAAUAGAACUUCGAGCCAGAAAGGGGCAUGAGGGCUCUUGCGAGACUGAAGUGCUAUCUUCUCUGGACUAGAGAGAAGAGG | 0.569
CAGCAUGUAUUCCUGGCAUGGGCUCUCCUAGUGGUCCAUGUGCAUCCUUGCGCAUGUGCACUCGCUCGCAGACUGAUGACCCUGCUUGCUGCAGAUGAAUGGUCAACGCG | 7.23
AAGCCCUUGUCUUCUCUUCCCCCCCACCCCACUAGGCCUGGUUAACCUUCCGUUUCCAGCUUCUCCCACUUCAGCCUGUUCCCACGGCACCGGGGUUUCUACUCCUGUAC | 1.03
GUAAGGUCCGAUUCCUACCAGGAAGUGCUUGCUGCUUCUUUGAUUAUGACUGGUUUGGGGUGGGGGGCAGUUUAUUUGUUGAGAGUGUGACCAAAAGUUACAUGUUUGCA | 6.11
AAAAUGAUUGGAAAUGAACUCUUGCCCUGGAAUAACCUUGACAAUUCAAACCGCGAUGUUUACUUUUUGUAUUGAUCACUUUUUUGCACUCCUUCUUCGUUGUCGAUGUU | 0.92
AGUCUGGAGUAUCGCUCCGUUCCCUGGCAGAAGGUUCCAGCCAGGAGGAUGUGCUGAAGAUGGUCUGGUCCUAACUGCCAGACACAAUGUCCGUGACAUUAAAGGCUCCA | 0.432
AGCUUUGGCUAGCUAAACAUGUUUAAUAAGGCCAUAAAAACUGAGAAAGAAAAACAUUCAACUUUAGCUGAAGCUCCUUUGAUACAAAAGUUUCAUUCUGUCAGAAAUAA | 0.328
UUCCCUGUGCUUGGCUCUCCAAAUUUCUGCCCAUCCAUCCUGCCCCUCACACAGUAGUACUAGUUGACAGUACUAGUUGGUUGAAACUAGGGAGACAGUUACCUAGACUA | 0.414

Sample 3
Target: ABI1, truncated, D143A, DHFR fusion (Arabidopsis thaliana)
Method: DHFR PCA, deep sequencing
Matrix: yeast
Setting: methotrexate growth selection, single substitutions
With: (+)-ABA 1.4 µM
Relative to: wild-type fitted maximum
Direction: higher = stronger binding
Starting sequence: PYL1, truncated, DHFR fusion (Arabidopsis thaliana); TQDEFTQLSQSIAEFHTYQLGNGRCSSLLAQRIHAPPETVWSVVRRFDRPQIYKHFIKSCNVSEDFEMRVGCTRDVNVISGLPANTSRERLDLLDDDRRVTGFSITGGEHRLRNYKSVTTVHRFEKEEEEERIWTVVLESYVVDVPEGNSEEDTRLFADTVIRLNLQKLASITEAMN; partner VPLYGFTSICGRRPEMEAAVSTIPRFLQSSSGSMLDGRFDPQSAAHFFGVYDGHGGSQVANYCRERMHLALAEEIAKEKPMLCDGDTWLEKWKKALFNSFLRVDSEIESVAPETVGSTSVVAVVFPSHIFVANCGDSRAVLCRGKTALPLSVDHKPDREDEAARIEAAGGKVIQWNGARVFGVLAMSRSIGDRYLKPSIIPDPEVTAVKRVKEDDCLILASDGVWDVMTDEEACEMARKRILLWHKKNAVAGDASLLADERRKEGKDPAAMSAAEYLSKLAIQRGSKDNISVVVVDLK
Change | relative binding score [%]
D159Q | -14.6
L91P | -2.54
A158W | -9.3
Y115F | 44.6
M176A | 42.7
R132L | 53.6
F157E | 4.19
E174F | -24.2
L164H | 63
H122T | -3.03
S80E | -6.99
T106Q | 27.8
V70Q | 7.87

Sample 4
Target: RING finger protein unkempt homolog, zinc fingers 1-6, SBP tag (UNK, Homo sapiens, UniProt Q9C0B0, residues 30-357)
Sequence of UniProt Q9C0B0 (30-357, looked up): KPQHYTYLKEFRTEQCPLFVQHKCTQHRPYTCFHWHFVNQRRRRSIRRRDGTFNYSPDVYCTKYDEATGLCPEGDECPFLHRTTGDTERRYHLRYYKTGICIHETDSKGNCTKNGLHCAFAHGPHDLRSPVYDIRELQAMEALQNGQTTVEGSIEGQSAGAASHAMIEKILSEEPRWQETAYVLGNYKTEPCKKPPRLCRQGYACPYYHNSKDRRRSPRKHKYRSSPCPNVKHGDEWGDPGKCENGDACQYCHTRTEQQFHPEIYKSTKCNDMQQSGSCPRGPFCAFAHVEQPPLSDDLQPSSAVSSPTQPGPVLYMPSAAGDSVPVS
Method: RNA Bind-n-Seq
Form: RNA
Matrix: in vitro
Concentration: 100 nM
Setting: RNA with constant flanks, vertebrate orthologous sites, ends assumed
Relative to: input RNA pool
Direction: higher = stronger binding
Constant ends, left off below: GGGAGUUCUACAGUCCGACGAUC … CAACAGAGGAUUGAGCAUCA
Oligonucleotide | bound/input enrichment
GGUGACUUUGGACGUCCUCACAGCCCGGCGAGGGUGACGGCUUAGUCUAGACCGACGGGUUCGUUUUCGUCCAUUGGGCUGCAGGCUGCUACCGCAAACAUGCUCCGCCAGAUCGUCGCC | 0.225 ratio
UAUAUUUAGGAUGAAGCUCUUGCACCAGGUGUCACGGGUCUGGAGAACAGAUGGCUUGACGAGUUGCAAUUAUAAAUUAUUGUCCGUGGAACACAAUCCUUUAUAUAUCAACAUCACAGU | 0.437 ratio
UUCAUUACCUGACCAGAGUGGAGGUCACAGAGUUUGAGGACAUCAAAUCAGGUUACAGAAUAGAUUUUUGUGGUUUUCAUCAGGCCUAGUGUAAUACUAACGCAAUAAAACCAUUUAAAA | 0.349 ratio
UAAGAUUUGAAUACUGGAGCCAAACUAAGGGGCUUGAAAGUAAAGAGAUUUGUAAAAUGCCGGCAUACACAGCUGCAAGACUGCAUCACCUCUGGCUGCUGUGUCCAGGUGUUUAUUACA | 0.218 ratio
UUCAGGCGCAAUUGACUGGUUCACAGCAUUCCUUACAUAGUUAUCUGUCAAAUGCAAGUUUAGGUAAUUUUCAGGAAACAUCCAAGCAGUCAUCUUUAUCCUGUAGUACAAUUGGAGAUU | 0.898 ratio
UUACAGUCAUUGAUGGACUCUAUUUUUUUAUUAUUACUUGGACCUUGGUCGUUUUUAUACUAGCAAAAUGUCUUGUUUUAAUUUGUGUUGGCGGGGGGAGGGAGUGAACUUGCUGAUUGU | 2.44 ratio
UCUCUCAGUUAGCUGUGUCCAAAAUUGCUAUGAGGGUUGGAAACAUUGAUUAGUUUCAUGUAGAACUACACUGGCAGGUGCUCAAUUACCAUCAUAGCAAGGUCAAAUACCAUCACAGUA | 1.36 ratio
UGACCAUUCAUACAAAAUGUGUUUUGAGCAAUGGGUGUGAAUGAAGCCAUCACUUGACUGGCAUUCACUUUUCAGAACUGCACAGCACGGAAGCACCCGUGAGCCCGAGGUCUGCGCUCU | 0.0449 ratio
CCCAGGGACUCCUCUGGGGACAGGUGGUGGGGCCCACUGGCCAUAUCAUCGAGGCCGUUUUAGCUUCAUUUAAAAAAAAAUUUAACAGUGCCCUUAUUAACCUGUAUGACUGAGAUUUGG | 0.427 ratio
GAUAUCUUCUGCAUGGAAUAUUGAAGACUUCCAUGCUUACGUUAAAUGCUAAAAUUAAGCUGCAGUACUUUAUUUCUGCAGUAUUGUUUGCUUGUGUUUAAAGUCAGACAGGAUAAAUGU | 0.332 ratio
GUGUUUUGUACAGGGUAUUCUCUGUACUAGUUUGUUGUGGUUAUAAAACAAUUAGCAAAACAGCUUACAUUUGUAUUUAUUUUCUAUUCCAUACUUCUGUGCCCCAUGUUUUUUUCUCUC | 0.959 ratio

Sample 5
Target: Sal-like protein 4, full length isoform A (SALL4, Homo sapiens, UniProt Q9UJQ4, residues 1-1053)
Sequence of UniProt Q9UJQ4 (whole entry, looked up): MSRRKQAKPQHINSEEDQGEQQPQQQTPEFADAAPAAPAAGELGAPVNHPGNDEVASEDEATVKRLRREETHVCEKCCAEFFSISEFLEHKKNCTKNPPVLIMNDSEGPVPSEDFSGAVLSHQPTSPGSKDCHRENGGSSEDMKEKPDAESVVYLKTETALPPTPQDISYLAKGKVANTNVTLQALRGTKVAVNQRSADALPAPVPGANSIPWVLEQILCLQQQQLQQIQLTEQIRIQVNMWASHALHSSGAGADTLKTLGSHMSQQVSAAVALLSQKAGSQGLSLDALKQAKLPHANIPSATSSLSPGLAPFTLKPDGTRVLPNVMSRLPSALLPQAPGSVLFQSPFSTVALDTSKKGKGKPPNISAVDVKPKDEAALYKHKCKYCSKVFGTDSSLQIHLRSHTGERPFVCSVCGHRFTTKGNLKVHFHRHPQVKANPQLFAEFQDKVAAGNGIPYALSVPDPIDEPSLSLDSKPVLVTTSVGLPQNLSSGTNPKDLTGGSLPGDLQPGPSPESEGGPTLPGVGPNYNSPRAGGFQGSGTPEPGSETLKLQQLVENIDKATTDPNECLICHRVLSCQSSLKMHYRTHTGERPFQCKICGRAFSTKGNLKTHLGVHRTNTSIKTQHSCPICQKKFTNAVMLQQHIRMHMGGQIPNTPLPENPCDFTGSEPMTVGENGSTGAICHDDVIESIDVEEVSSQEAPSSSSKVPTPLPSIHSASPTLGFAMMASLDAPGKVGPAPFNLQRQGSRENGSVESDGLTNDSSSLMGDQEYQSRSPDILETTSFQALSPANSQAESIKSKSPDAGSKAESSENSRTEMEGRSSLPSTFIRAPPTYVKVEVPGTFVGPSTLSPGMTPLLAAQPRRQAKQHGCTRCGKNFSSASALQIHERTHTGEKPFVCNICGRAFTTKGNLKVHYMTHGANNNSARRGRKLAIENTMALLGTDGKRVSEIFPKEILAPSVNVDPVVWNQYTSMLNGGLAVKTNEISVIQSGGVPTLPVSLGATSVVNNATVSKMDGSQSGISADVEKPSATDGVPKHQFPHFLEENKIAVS
Method: universal PBM
Form: double-stranded DNA, one strand shown
Matrix: in vitro
Concentration: 600 nM
Setting: 8-mer, flanks averaged, mean of replicates
Direction: higher = stronger binding
Oligonucleotide | E-score
GCACACAC | -0.181
AAGTCGTG | -0.011
GATTGTGC | -0.0574
CACCACCA | -0.175
CCGGCTAC | -0.275
AGGAGTTA | 0.15
CCCATTGA | -0.0654
CATTGTGC | 0.00122
AAATGTGT | 0.285
ACTGATGA | 0.128
ACACAGTC | 0.0276
AAAAAATC | 0.304
CCTATCTC | -0.0715
GACCGCGC | -0.291
CTAAGTCC | -0.145
CTCATCCA | 0.0653
AAACTACG | -0.0108
TCATAAAA | 0.39
CGCGACTA | -0.127
